Literature values, collected from citations in different studies.
Each numbered part shows a few of the values that one paper quotes. pEC50, pIC50, pKd: −log10 of the molar value.

Series 1
Structure (SMILES): Cc1cc(Nc2nccc(C)n2)cc(-c2cnc([C@@]3(O)CC[C@H](C(=O)O)C(C)(C)C3)s2)c1
Setting: kinase panel
target	pIC50
ZAP70	7.62
FYN	6.69
NTRK3	6.92

Series 2
Target: dopamine transporter
Compound	pIC50
COc1ccc2[nH]c([S+]([O-])Cc3ncc(C)c(OC)c3C)nc2c1 (centres unmarked)	< 5.00
NNC(=O)c1ccncc1	< 5.00
CN(C)C(=N)N=C(N)N	< 5.00
Nc1nc2c(ncn2COCCO)c(=O)[nH]1	< 5.00

Series 3
SMILES: CCCCCCCCNC(C)C(O)c1ccc(SC(C)C)cc1 (centres unmarked)
Cell line: MCF7
Method: microarray
Concentration: concentration not given
Baseline: DMSO
item	log2 fold change
TMEM41B mRNA	1.35
TRIB1 mRNA	2.33
USO1 mRNA	1.22
WDR45 mRNA	1.15

Series 4
Organism: Cryptosporidium parvum
Method: high-throughput screen
Concentration: concentration not given
Structure (SMILES)	activity
CC(C)NCC(O)COc1ccc(COCCOC(C)C)cc1 (centres unmarked)	inactive
O=C(O)Cc1ccccc1Nc1c(Cl)cccc1Cl	inactive
C#C[C@]1(O)CC[C@H]2[C@@H]3CCC4=Cc5oncc5C[C@]4(C)[C@H]3CC[C@@]21C	inactive
COc1ccc(-c2oc3c(CC=C(C)C)c(O[C@@H]4O[C@H](CO)[C@@H](O)[C@H](O)[C@H]4O)cc(O)c3c(=O)c2O[C@@H]2O[C@@H](C)[C@H](O)[C@@H](O)[C@H]2O)cc1	inactive
CN(C)CCC=C1c2ccccc2CCc2ccccc21	inactive
O=C(O)c1cc2ccccc2c(Cc2c(O)c(C(=O)O)cc3ccccc23)c1O.OCCOCCN1CCN(C(c2ccccc2)c2ccc(Cl)cc2)CC1	inactive
C[C@H]1COc2c(C3(N)CC3)c(F)cc3c(=O)c(C(=O)O)cn1c23	inactive
CC[C@@H](CO)NCCN[C@@H](CC)CO	inactive
CC12CC3CC(C)(C1)CC(N)(C3)C2	inactive
CN(C)C(=O)Oc1ccc[n+](C)c1	inactive
CC(COc1ccccc1Cc1ccccc1)N1CCCCC1.O=P(O)(O)O (centres unmarked)	inactive
Cc1ccc(O)c([C@H](CCN(C(C)C)C(C)C)c2ccccc2)c1	inactive
C[N+]1(C)CCC(OC(=O)C(O)(c2ccccc2)C2CCCC2)C1 (centres unmarked)	inactive
CN(C)CC[C@@H](c1ccc(Cl)cc1)c1ccccn1	inactive
CC(=O)NCCCCCCNC(C)=O	inactive
Nc1ccn([C@H]2CC[C@@H](CO)O2)c(=O)n1	inactive
CCn1cc(C(=O)O)c(=O)c2ccc(C)nc21	inactive
O=C1CCc2ccc(OCCCCN3CCN(c4cccc(Cl)c4Cl)CC3)cc2N1	inactive
CN(C/C=C/C#CC(C)(C)C)Cc1cccc2ccccc12	inactive
CCOC(=O)[C@H](CCc1ccccc1)N[C@@H](C)C(=O)N1CCC[C@H]1C(=O)O	inactive
C[C@@H]1C[C@H]2[C@@H]3CCC4=CC(=O)C=C[C@]4(C)[C@@]3(F)[C@@H](O)C[C@]2(C)[C@@]1(O)C(=O)CO	inactive
CC(C)(C)NC(=O)[C@H]1CC[C@H]2[C@@H]3CC[C@H]4NC(=O)C=C[C@]4(C)[C@H]3CC[C@]12C	inactive
Cc1nnc(SCC2=C(C(=O)O)N3C(=O)[C@@H](NC(=O)Cn4cnnn4)[C@H]3SC2)s1	inactive
O=C(CCCN1CCC(O)(c2ccc(Cl)cc2)CC1)c1ccc(F)cc1	inactive
COc1cc(C)c(/C=C/C(C)=C/C=C/C(C)=C/C(=O)O)c(C)c1C	inactive

Other studies, line by line
SMILES	tested on	assay	test system	setting	endpoint	result
C#C[C@]1(OC(C)=O)CC[C@H]2[C@@H]3CCC4=CC(=NO)CC[C@@H]4[C@H]3CC[C@@]21CC (mixture of isomers)	–	–	–	–	logP	5.28
O=C(O)Cc1ccccc1Nc1c(Cl)cccc1Cl	–	–	human	average of reported values	blood-to-plasma ratio	0.62
CCC(C)n1ncn(-c2ccc(N3CCN(c4ccc(OCC5COC(Cn6cncn6)(c6ccc(Cl)cc6Cl)O5)cc4)CC3)cc2)c1=O (centres unmarked)	–	–	human	dose not given	half-life	~20 h
CC(=O)Nc1ccc(O)cc1	–	–	human	average of reported values	blood-to-plasma ratio	1.1
CC(=O)N1CCC[C@H]1C(=O)N[C@@H](CCC(N)=O)C(=O)N1CCC[C@H]1C(=O)N[C@H](C(=O)N[C@@H](CC(=O)O)C(=O)N[C@@H](CO)C(=O)N[C@@H](Cc1c[nH]c2ccccc12)C(=O)N[C@H](C(=O)O)C(C)C)C(C)C	affinity clamp fusion protein	binding	–	–	pKd	6.85
Cc1cc(C)c(CNC(=O)c2cc(Cl)c3c(c2C)O[C@@](C)([C@H]2CC[C@H](N(C)C)CC2)O3)c(=O)[nH]1	–	–	relapsed/refractory ATLL patients	200 mg/day, without fluconazole	grade ≥3 TEAE incidence	58.3%
c1cnc2cc3c(cc2n1)[C@@H]1CNC[C@H]3C1	nicotinic acetylcholine receptor	agonist	–	–	pEC50	5.52
CNC(=O)c1ccc(Nc2ncc(C(F)(F)F)c(NCc3nccnc3N(C)S(C)(=O)=O)n2)cc1	–	–	patients with KRAS mutant NSCLC	dose not given	median progression-free survival	46 days
COc1ccc([C@@H](O)c2cc(-c3ncnc4cc(N5CCOCC5)ccc34)c(F)cc2Cl)nn1	protein kinase panel	–	–	concentration not given	activity	inactive
F[P-](F)(F)(F)(F)F.F[P-](F)(F)(F)(F)F.[Ru+2].c1ccc(-c2ccccn2)nc1.c1ccc(-c2ccccn2)nc1.c1ccc(-c2ccccn2)nc1	–	–	acetonitrile	–	singlet oxygen quantum yield	0.56
O=C(/C=C/c1ccccc1)c1ccccc1	Staphylococcus aureus	–	–	–	MIC	> 4.86 mM
CNS(=O)(=O)Nc1nccc(Cc2c(C)c3ccc(Oc4ncccn4)cc3oc2=O)c1F	RAF-1	kinase activity, inhibitor	–	–	pIC50	7.25
O=C(O)[C@H]1O[C@@H](Oc2c(O)cc(O)c3c(=O)c(O)c(-c4ccc(O)c(O)c4)oc23)[C@H](O)[C@@H](O)[C@@H]1O	Staphylococcus aureus	–	–	–	MIC	512 µg/mL
C#C[C@]1(O)CC[C@H]2[C@@H]3CCc4cc(O)ccc4[C@H]3CC[C@@]21C	–	–	human, fed	0.02 mg, single dose	Cmax, mean	0.0365 ng/mL
